Assay results of several laboratories.
± gives the spread as reported.

CC(=O)N1CCC[C@H]1C(=O)N[C@@H](CC/C=C/C(=O)N(C)C)C(=O)N[C@@H](CCNC(=O)CCCCCN1C(=CC=CC=CC2=[N+](C)c3ccc(S(=O)(=O)[O-])cc3C2(C)C)C(C)(C)c2cc(S(=O)(=O)O)ccc21)C(=O)N1CCC[C@H]1C(=O)N[C@@H](Cc1ccccc1)C(N)=O  Pearson colocalization coefficient (NRK cells; measured: Rab7; 90 min, added: α2-macroglobulin): 0.03
COc1cc(CNC(=O)C[C@H](C)CCC=C(C)C)ccc1OCc1cn(-c2ccc(Cl)c(Cl)c2)nn1  growth percent (NCI-H522; SRB; 10 µM, 48 h): 61.5%
CCCCc1ccc(C(=O)N[C@@H](CO)C(=O)N[C@H](C(=O)N2CCC[C@H]2C(=O)N[C@@H](CC(N)=O)C(=O)NCC(=O)N[C@@H](CC(C)C)C(=O)O)[C@@H](C)OP(=O)(O)O)cc1  aberrant mitoses (HeLa-H2B-GFP, QQ transfected; 30 µM, 24 h): 53.8%
COCc1nc(C(F)(F)F)[nH]c1-c1cc(C(=O)N2CC(c3ccc(C#N)cc3)C2)c(C)cc1C  inhibition (NCI-H520; β-tubulin palmitoylation, acyl-biotin exchange, measured: palmitoyl-β-tubulin; concentration not given): 65%
CC(C)Cc1ccc(C(C)C(=O)[O][Pt]([NH2])([NH2])([Cl])([Cl])[O]C(=O)CCCc2ccccc2)cc1 (centres unmarked)  IC50 fold lower (six human cancer lines; cytotoxicity, MTT; reference: oxaliplatin): ~3 fold
CC/C=C\C/C=C\C/C=C\C/C=C\C/C=C\C/C=C\CCC(=O)Nc1ccn(C2OC(CO)C(O)C2(F)F)c(=O)n1 (centres unmarked)  GI50 (UO-31; cell growth or viability, SRB): 0.0835 µM
COc1cc(CNC(=O)C[C@H](C)CCC=C(C)C)ccc1OCc1cn(-c2ccc(Cl)cc2Cl)nn1  growth percent (SNB-75 CNS cancer cells; SRB; 10 µM, 48 h): 7.99%
CCOC(=O)C1NC(c2ccc[n+](C)c2)C23c4c5c6c7c8c9c(c%10c%11c2c2c4c4c%12c5c5c6c6c8c8c%13c9c9c%10c%10c%11c%11c2c2c4c4c%12c%12c5c5c6c8c6c8c%13c9c9c%10c%10c%11c2c2c4c4c%12c5c6c5c8c9c%10c2c45)C713 (centres unmarked)  CC50 (BC-3; cell growth or viability; 24 h): 9.6 µM
COc1ccc([C@@H]2CC(=O)c3c(O)cc(O[C@@H]4O[C@H](CO[C@@H]5O[C@@H](C)[C@H](O)[C@@H](O)[C@H]5O)[C@@H](O)[C@H](O)[C@H]4O)cc3O2)cc1O  cell count (MRC5; trypan blue exclusion; 50 µg/mL, 24 h): 12900 ± 498
COc1ccc(NC(=O)N/N=C2\CC3(CCN(C)CC3)Oc3ccccc32)cc1  apoptotic cells (HCT-116; annexin V-FITC/PI; concentration not given, 24 h, Early apoptosis): 31%
CC(=O)OC[C@H]1O[C@@H](Sc2sc(C(=O)c3ccc(Br)cc3)c(N)c2-c2nc3ccccc3s2)[C@H](OC(C)=O)[C@@H](OC(C)=O)[C@H]1OC(C)=O  growth (NCI-H522; SRB; 10 µM, 48 h; reference: untreated): 94.1%
COc1cc(CNC(=O)C[C@H](C)CCC=C(C)C)ccc1OCc1cn(-c2ccc(C#N)cc2)nn1  growth percent (SNB-75 CNS cancer cells; SRB; 10 µM, 48 h): 54.6%
Cc1ccc(-n2nnnc2[S+]([O-])Cc2c(F)cccc2Cl)cc1Cl (centres unmarked)  overlap with Myc targets (Ramos; LFQ mass spectrometry; 10 µM, 8 h): 13.3%
C=CCc1cc(OC)c(OC(C)=O)c(OC)c1  IC20 (MDA-MB-231; cell growth or viability, MTT): 50 µM
CC(Cc1ccc(Cl)cc1)=C(c1ccc(Cl)cc1)c1ccc(OCCN(C)C)cc1  GI50 (OVCAR-4; cell growth or viability): 3.52 µM
Cc1ccc(C(C)C)cc1.[Cl-].[Cl][Ru+].[Ru+].c1ccc(-c2cn(CCCCOc3ccccc3-c3nc4ccccc4s3)nn2)nc1  selectivity ratio (MCF7; MTT; reference: IC50 HEK293 over IC50 MCF7): 10.9
NS(=O)(=O)c1ccc(-n2cc(Cn3c(=O)c(Cc4ccccc4)nc4ccccc43)nn2)cc1  selectivity index (HCT-116; MTT; reference: HCT-116 over normal colonocytes): 6.65
C(=C/c1ccccc1)/c1ccccc1  lowest effective concentration (U-937; cell proliferation, CellTiter-Glo; 24 h, lowest dose with significant inhibition; reference: vehicle): 2 µM
N=C(N)NCCC[C@H](NC(=O)[C@H](Cc1c[nH]c2ccccc12)NC(=O)[C@H](CCC(N)=O)NC(=O)[C@H](Cc1c[nH]c2ccccc12)NC(=O)[C@H](CCCNC(=N)N)NC(=O)[C@H](Cc1c[nH]c2ccccc12)NC(=O)[C@H](CCC(N)=O)NC(=O)[C@H](Cc1c[nH]c2ccccc12)NC(=O)[C@@H](N)CCCNC(=N)N)C(N)=O  viability (MDA-MB-468; MTT; concentration not given, 48 h, 37 °C, 5% FBS; reference: untreated cells): 24 ± 2%
COc1cc(CNC(=O)C[C@H](C)CCC=C(C)C)ccc1OCc1cn(-c2ccc(Br)cc2)nn1  growth percent (COLO 205; SRB; 10 µM, 48 h): 113%
C=C(CC)C(=O)c1ccc(OCC(=O)NCCCCNC(=O)COc2ccc(C(=O)C(=C)CC)c(Cl)c2Cl)c(Cl)c1Cl  IC10 (SK-OV-3/DDP; cell growth, CCK-8; 72 h): 4.8 µM
C=CC(OC(C)=O)c1ccc(OC(C)=O)c(OC)c1 (centres unmarked)  IC20 (MDA-MB-231; cell growth or viability, MTT): 4 µM
Cc1c(C)c(C)[c-](C)c1C.[C-]#[O+].[C-]#[O+].[C-]#[O+].[Cl-].[Cl-].[Cl-].[Ir+3].[Re+].c1cnc(-c2ncccn2)nc1  cells with depolarised mitochondria (MDA-MB-468; JC-1 flow cytometry; 10 µM): 28.9%
COC1CN([C@H]2CC[C@H]([C@@]3(C)Oc4c(Cl)cc(C(=O)NCc5c(SC)cc(C)[nH]c5=O)c(C)c4O3)CC2)C1  GI50 (T24; cell growth or viability, ATP luminescence; 12 days): > 1 µM
CCOC(=O)C(Cc1cccc(O)c1)OC(=O)C=Cc1ccc(O)c(O)c1C=Cc1ccc(O)c(O)c1 (centres unmarked)  average cell length (human vascular smooth muscle cells; 10 µM): ~60 µm
COc1cc(CNC(=O)C[C@H](C)CCC=C(C)C)ccc1OCc1cn(-c2ccc([N+](=O)[O-])cc2)nn1  growth percent (COLO 205; SRB; 10 µM, 48 h): 122%
O=C1OCC2=C1C(c1cccc(Br)c1)C1=C(N2)C(=O)c2ccccc2C1=O (centres unmarked)  late apoptotic cells (SK-LU-1 cells; annexin V/PI; 0.32 µM, 24 h): 7.1%
O=C(Cn1c(=O)c(Cc2ccccc2)nc2ccccc21)NN1C(=O)c2ccccc2C1=O  mRNA level (HCT-116; qRT-PCR, measured: HIF-1α; concentration not given, 72 h; reference: untreated): 0.3 ± 0.011 fold
CC1OC2OC3C4=C(OC3(C)C12O)C(=O)c1c(O)cccc1C4=O (centres unmarked)  early apoptotic cells (MDA-MB-231; annexin V/PI flow cytometry; 4 µg/mL, 48 h): 58.4%
CCNc1ccc(-c2nc3cc(OCCF)ccc3n3cccc23)cc1  concentration for near-complete inhibition (HEK293 DR-GFP reporter; homologous recombination; 48 h): 30 to 40 µM
O=C1Nc2ccc(F)cc2C1=Cc1c(Cl)[nH]c2c1ccc1ccccc12  TGI (prostate cancer subpanel of NCI-60; 48 h): 9.77 µM
CNC(=O)c1ccccc1Oc1nc(Nc2cc(OC)c(OC)c(OC)c2)ncc1Br  Akt pathway phosphorylation (rat primary adipocytes; immunoblot, measured: phospho-Akt, AS160, GSK3α/β; dose not given, added: insulin 10 nM): no effect
C[C@H](N)C(=O)N[C@@H](Cc1c[nH]c2ccccc12)C(=O)N[C@@H](CCC(N)=O)C(=O)N[C@@H](Cc1c[nH]c2ccccc12)C(=O)N[C@@H](CCCNC(=N)N)C(=O)N[C@@H](Cc1c[nH]c2ccccc12)C(=O)N[C@@H](CCC(N)=O)C(=O)N[C@@H](Cc1c[nH]c2ccccc12)C(=O)N[C@@H](CCCNC(=N)N)C(N)=O  viability (young human fibroblasts primary; MTT; concentration not given, 2 h, 37 °C, 5% FBS; reference: untreated cells): 99 ± 2%
COc1ncccc1CN(C(=O)OCc1ccc([N+](=O)[O-])cc1)[C@H]1C[C@@H]1c1ccccc1 (racemic)  selectivity ratio (THP-1 cells; colony forming unit; reference: EC50 wild type over NTR-expressing): 4 ± 1
CC(C)[C@@H](NC(=O)[C@H](N)CCCNC(=N)N)C(=O)N[C@H](CCCCN)C(=O)N[C@@H](C(=O)N[C@H](CCCCN)C(=O)N[C@@H](C(=O)N[C@@H](C(=O)N[C@@H](C(=O)N[C@@H](C(=O)N[C@H](CCCNC(=N)N)C(=O)N[C@H](CCCNC(=N)N)C(=O)N[C@H](CCCNC(=N)N)C(=O)N[C@H](CCCNC(=N)N)C(=O)N[C@H](CCCNC(=N)N)C(=O)N[C@H](CCCNC(=N)N)C(=O)N[C@H](CCCNC(=N)N)C(=O)N[C@H](CCCNC(=N)N)C(=O)N[C@H](CCCNC(=N)N)C(N)=O)C(C)C)C(C)C)C(C)C)C(C)C)C(C)C  CD25 expression (human PBMC NK cells CD3-CD56+; flow cytometry; concentration not given, 72 h, unstimulated): increased
CC1OC(Oc2c(-c3ccc(O)cc3)oc3cc(O)cc(O)c3c2=O)C(OC(=O)C=Cc2ccc(O)cc2)C(O)C1OC(=O)C=Cc1ccc(O)cc1 (centres unmarked)  M1 gene expression (mouse bone marrow macrophages; qRT-PCR; 5 µM, 24 h, outcome increased): increased
CC(=O)N[C@H](C(=O)N[C@H](C(=O)N[C@@H](CCCNC(=N)N)C(=O)N1Cc2ccccc2C[C@H]1C(=O)N[C@@H](Cc1ccccc1)C(N)=O)C1CCCCC1)C(C)C  cytokine level (MBP-specific BC-3 T cells; Bio-Plex multiplex, measured: IFN-g; 200 µg/mL, 24 h, added: MBP87-99 antigen): 46.2 ± 17.8 pg/mL
Cc1cnc2c(ccc3c(C)c(C)cnc32)c1C.O=C([O-])Cc1ccccc1Nc1c(Cl)cccc1Cl.O=C([O-])Cc1ccccc1Nc1c(Cl)cccc1Cl.[Mn+2]  decrease in mammosphere number (HMLER-shEcad; IC20, 5 d; reference: untreated): 51%
COc1cc(C(=O)c2[nH]c(N)nc2-c2cccs2)cc(OC)c1OC  multipolar mitotic spindles (HeLa or A549 cells; γ-tubulin immunofluorescence; 200 nM): 58%
COc1cc(CNC(=O)C[C@H](C)CCC=C(C)C)ccc1OCc1cn(-c2cccc(Cl)c2)nn1  growth percent (NCI-H522; SRB; 10 µM, 48 h): 67.3%
O=C(N1CCCC1)n1cc(-c2ccc(-c3ccccc3)cc2)nn1  SILAC ratio (mouse T-cells; N-terminal labeled proteins, N-terminal enrichment proteomics, measured: NIBAN; 1 nM, 6 h; reference: DMSO): 1.3 ± 0.36
CCc1cccc(CC)c1NC(=O)c1nn(C)c2c1CCc1cnc(Nc3ccc(N4CCN(C)CC4)cc3OC)nc1-2  IC50 ratio (HCT-116 C604Y clone B; cell proliferation; reference: C604Y clone B over parental HCT-116): 18.1
Cc1nc(Nc2ncc(C(=O)Nc3c(C)cccc3Cl)s2)cc(N2CCN(C(=O)CN)CC2)n1  onset of growth inhibition (KU812; cell growth, CCK-8; 20 nM): 3 h
COc1cc(CNC(=O)C[C@H](C)CCC=C(C)C)ccc1OCc1cn(-c2ccccc2Cl)nn1  growth percent (SK-MEL-28 melanoma cells; SRB; 10 µM, 48 h): 69.8%
O=Cc1c(O)ccc2ccccc12  log2 fold change (HUVEC; RNA sequencing, measured: CLDN1; 75 µM, 24 h; reference: DMSO): 3.25
COc1cc(CNC(=O)C[C@H](C)CCC=C(C)C)ccc1OCc1cn(-c2ccccc2)nn1  growth percent (SK-MEL-28 melanoma cells; SRB; 10 µM, 48 h): 99.7%
CCN(CC)CC(=O)Nc1cccc(-n2cc(-c3ccc4ccc(-c5cn(-c6cccc(NC(=O)CN(CC)CC)c6)nn5)cc4c3)nn2)c1  VEGF level (RCC4; ELISA; culture medium; 5 × IC50, 4 h; reference: untreated): 71.6%

For quick reference, copied from above:
COc1ccc(NC(=O)N/N=C2\CC3(CCN(C)CC3)Oc3ccccc32)cc1  apoptotic cells (HCT-116; annexin V-FITC/PI; concentration not given, 24 h, Early apoptosis): 31%
CC(=O)OC[C@H]1O[C@@H](Sc2sc(C(=O)c3ccc(Br)cc3)c(N)c2-c2nc3ccccc3s2)[C@H](OC(C)=O)[C@@H](OC(C)=O)[C@H]1OC(C)=O  growth (NCI-H522; SRB; 10 µM, 48 h; reference: untreated): 94.1%
COc1cc(CNC(=O)C[C@H](C)CCC=C(C)C)ccc1OCc1cn(-c2ccc(C#N)cc2)nn1  growth percent (SNB-75 CNS cancer cells; SRB; 10 µM, 48 h): 54.6%
Cc1ccc(-n2nnnc2[S+]([O-])Cc2c(F)cccc2Cl)cc1Cl (centres unmarked)  overlap with Myc targets (Ramos; LFQ mass spectrometry; 10 µM, 8 h): 13.3%
C=CCc1cc(OC)c(OC(C)=O)c(OC)c1  IC20 (MDA-MB-231; cell growth or viability, MTT): 50 µM
CC(Cc1ccc(Cl)cc1)=C(c1ccc(Cl)cc1)c1ccc(OCCN(C)C)cc1  GI50 (OVCAR-4; cell growth or viability): 3.52 µM
Cc1ccc(C(C)C)cc1.[Cl-].[Cl][Ru+].[Ru+].c1ccc(-c2cn(CCCCOc3ccccc3-c3nc4ccccc4s3)nn2)nc1  selectivity ratio (MCF7; MTT; reference: IC50 HEK293 over IC50 MCF7): 10.9
